Experimental data from different studies.
Each line is one published result; not all experiments were run side by side. Numbers after ± are the reported error.
Organism: Salmonella typhimurium

The induction factor of O=[N+]([O-])c1ccc(N2CCC(NCCC(O)c3ccc(F)c4ccccc34)CC2)c(C(F)(F)F)c1 (stereo not drawn) is reported as 0.55 (genotoxicity, SOS/umu test; TA1535/pSK1002; 0.008 mg/mL, 4 h, without S9, full range).
COc1cccc(-c2n[nH]c(SCc3ccccn3)n2)c1OC — result for “revertant colonies per plate”: 123 (Ames test, preincubation; TA100; 0.50 mg/plate, without S9).
The survival of Fc1ccc(C2=CCNCC2)cc1 is reported as 99.6% (SOS/umu test; TA1535/pSK1002; 0.008 mg/mL, 4 h, with S9, full range).
CNC(=O)c1c(N(C)N=O)ncn1C: “revertant colonies per plate” 36.7 ± 2 (plate incorporation; TA1535, water; 1500 µg/plate, without S9).
CC(=O)N1CCC(C(=O)N2CCN3C(=O)c4cc(-c5ccccc5)ccc4NC(=O)C3C2)CC1 (stereo not drawn) — result for “fold increase in revertants”: 1.4 (TA98; 1.58 µg/plate; relative to: vehicle).
Cc1cc(C(=O)NC(C)(C)COc2cccc3c2C(N)=NS(=O)(=O)N3)cc(C)n1 gave a revertant ratio of 0.9 (Ames test, initial; TA100; 1.50 µg/plate, added: rat liver S9; relative to: solvent control).
O=NN1CCN(C2CCCC2)CC1: “revertant colonies per plate” 135 ± 5 (mutagenicity, Ames plate incorporation; TA100; 5000 µg/plate, 3 d, without S9, methanol).
The viability of N#C[C@@]1(n2ccc(N)nc2=O)O[C@H](CO)[C@@H](O)[C@H]1O is reported as 106 (TA100; 1.2 µM, without S9, unit not given; relative to: control).
O=[N+]([O-])c1ccc(NC2CCNCC2)c(C(F)(F)F)c1 gave a survival of 110% (SOS/umu test; TA1535/pSK1002, TGA medium; 0.001 mg/mL, 4 h, added: rat liver S9).
CN(CC(C)(C)C)N=O — result for “revertant colonies per plate”: 45 ± 10 (mutagenicity, Ames plate incorporation; TA1535; 5000 µg/plate, without S9, methanol).
O=[N+]([O-])c1ccc(N2CCN(CCC(O)c3ccc(F)cc3)CC2)c(C(F)(F)F)c1 (stereo not drawn) has an induction factor of 1.1 (genotoxicity, SOS/umu test; TA1535/pSK1002; 0.004 mg/mL, 4 h, with S9, full range).
CC(C)N(C)N=O — result for “revertant colonies per plate”: 23 ± 3 (mutagenicity, Ames plate incorporation; TA1535; 1500 µg/plate, 3 d, without S9, methanol).
